Assay results gathered from unrelated publications.
Each line is one published result; not all experiments were run side by side.
Target: 5-hydroxytryptamine receptor 2A (HTR2A, Homo sapiens, UniProt P28223)
UniProt P28223, sequence (whole entry, looked up): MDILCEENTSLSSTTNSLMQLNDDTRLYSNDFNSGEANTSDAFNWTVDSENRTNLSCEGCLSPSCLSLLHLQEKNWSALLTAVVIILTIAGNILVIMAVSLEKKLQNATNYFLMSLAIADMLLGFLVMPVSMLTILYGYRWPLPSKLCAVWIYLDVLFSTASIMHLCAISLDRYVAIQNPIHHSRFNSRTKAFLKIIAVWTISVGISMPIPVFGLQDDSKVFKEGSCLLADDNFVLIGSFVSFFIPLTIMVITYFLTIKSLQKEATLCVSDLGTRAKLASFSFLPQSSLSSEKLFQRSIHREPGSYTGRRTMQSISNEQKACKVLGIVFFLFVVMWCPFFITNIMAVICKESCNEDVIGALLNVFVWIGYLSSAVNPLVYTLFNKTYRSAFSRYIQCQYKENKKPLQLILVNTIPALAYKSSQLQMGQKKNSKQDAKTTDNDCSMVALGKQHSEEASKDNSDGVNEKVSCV

`CC1Cc2ccccc2N1C(=O)CN1CCN(c2ccccc2)CC1` (centres unmarked) gave an inhibition of 34.5% (radioligand binding; concentration not given, with: [3H]ketanserin).
For `Cc1cccc(O[C@H]2CCC[C@@H](C(C)CNCc3ccncc3)C2)c1` (relative stereo), the inhibition was 55% (ligand displacement; 10 µM).
With `CCC(=O)N(C)c1ccc(Cl)c(Cl)c1` the inhibition was less than 10% (ligand displacement, radioligand; 10 µM).
`CC(C)Cn1c(SCC(=O)N2CCc3ccccc3C2)nc2cc(Cl)ccc2c1=O` gave an inhibition of -1% (ligand displacement, radioligand; 10 µM).
The inhibition of `COc1ccc(S(=O)(=O)N2CCc3ccccc3C2)cc1N1CCN(C(=O)c2ccc(F)cc2C(F)(F)F)CC1` is reported as 9.2% (ligand displacement, radioligand; 1 µM).
With `c1ccc(OC[C@H]2CN(CCN3CCc4ccccc43)CCO2)nc1` the inhibition was 47.5% (radioligand binding; concentration not given, with: [3H]ketanserin).
The inhibition of `C[Si](C)(C)C[C@@H](CN)CC(=O)O` is reported as -1% (ligand displacement, radioligand; 75 µM).
For `O=C1c2sc(-c3ccc(N4CCC(CO)CC4)nc3F)nc2CCN1c1cccnc1`, the inhibition was 5% (ligand displacement, radioligand; 1 µM).
`CC1Cc2ccccc2N1C(=O)CN1CCN(Cc2ccccc2)CC1` (centres unmarked) gave an inhibition of 42.9% (radioligand binding; concentration not given, with: [3H]ketanserin).
With `COc1ccc(C(=O)Nc2c(-c3cccs3)nc3ccccn23)cc1` the inhibition was less than 50% (ligand displacement, radioligand; 10 µM).
For `C[Si]1(C[C@H](CN)CC(=O)O)CCCC1`, the inhibition was -2% (ligand displacement, radioligand; 70 µM).
